# Measured values from different studies.
# Lines come from different studies, so protocols differ. ± gives the spread as reported.
Structure (SMILES),test,test system,conditions,scale,measurement,value
CCCCCN(C)CCC(O)(P(=O)(O)O)P(=O)(O)OP(=O)(O)OC[C@H]1O[C@@H](n2ccc(N)nc2=O)C(F)(F)[C@@H]1O (stereo partly shown),,HEPES buffer,"pH 7.4, 37 °C",,hydrolysis rate constant,0.09 h⁻¹
CNCc1ccc(-c2[nH]c3cc(F)cc4c3c2CCNC4=O)cc1,,human patients,"oral, 840 mg twice daily, all grades",,malignant neoplasm progression incidence,0%
C[C@@H]1CN(CC(=O)N2CC(C)(C)c3nc(CO)c(Cc4ccc(F)cc4)cc32)[C@@H](CN2CCOC[C@H]2C)CN1,,"male Sprague Dawley rats, bile duct cannulated, bile","intravenous, 5 mg/kg, 24 h",reference: dose,unchanged drug excreted,6%
COc1cc2c(cc1OC)C(=O)C(CC1CCN(Cc3ccccc3)CC1)C2 (stereo not shown),,human subjects,unit not given,reference: placebo,LSEQ behaviour after wake,1.66
Cl.[2H]C([2H])([2H])CC(=O)c1cnc(NC(=O)C2CC2)cc1Nc1cccc(-c2ncn(C([2H])([2H])[2H])n2)c1OC,geometric mean,human,"oral, 20 mg twice daily, day 14, fasted, tablet, multiple dose",,AUC(0-tau),1920 ng·h/mL
Cc1cccc(CNC(=O)c2cn(CCNC(=O)c3ccccc3Sc3c([N+](=O)[O-])ncn3C)c3cc4c(cc3c2=O)OC(F)(F)O4)n1,,"Sprague-Dawley rat, male, plasma","intramuscular, 10 mg/kg of parent drug",,bioavailability,30.2 ± 7.3%
CC[C@H](C)CCCCC(=O)N[C@@H](CCN)C(=O)N[C@H](C(=O)N[C@@H](CCN)C(=O)N[C@H]1CCNC(=O)[C@H]([C@@H](C)O)NC(=O)[C@H](CCN)NC(=O)[C@H](CCN)NC(=O)[C@H](CC(C)C)NC(=O)[C@@H](Cc2ccccc2)NC(=O)[C@H](CCN)NC1=O)[C@@H](C)O,,mild renal impairment,"intravenous infusion, 0.75 mg/kg single dose over 1 h, arithmetic mean",,clearance,35 mL/min
CNC(=O)c1ccc(-c2cnc3ncc(Cc4ccc5ncccc5c4)n3n2)cc1F,,Japanese patients,"oral, 400 mg, any grade",,γGT increased patients,5%
O=C(Nc1c2c(cc3c1CCC3)CCC2)NS(=O)(=O)/C=C/c1nccs1,,human liver microsomes,1 µM,,metabolic rate,0.019 nmol/min/mg protein
CCCCN(Cc1c(-c2ccccc2)nc2ccc(C)cn12)c1cccc(C(F)(F)F)c1,,"peritoneal macrophages, Swiss mice","5 days, 5% fetal calf serum",,CC50,7.94 µM
COc1ccnc(C(=O)NCC(=O)O)c1O,aerobic dark soil incubation,soil,"geometric mean of 4 soils, persistence endpoint",,DT50,12 days
N#Cc1ccc2c(c1)[C@H]1CCCN(C(=O)c3ccc4[nH]cnc4c3)[C@H]1C2,,"human, plasma","240 mg once daily, day 28",,pre-dose plasma concentration,1820 nmol/L
Cc1cc(NC2CCN(C(=O)OC3CCN(C(=O)/C=C/CN(C)C)C3)CC2)n2ncc(C(C)C)c2n1 (stereo not shown),"Phase I dose escalation CTCAE v4.0, refers to: urinary tract infection",patients with advanced solid tumours,"dose not given, QD dosing grade 3 or higher",,patients with adverse event,0%
CCN1/C(=C/C(C)=O)Sc2ccc(F)cc21,,cynomolgus monkey,"oral, 100 mg/kg, 0.5 h post-dose",,mean blood pressure,90 ± 4 mmHg
O=C(Nc1ccc(OC(F)(F)Cl)cc1)c1cnc(N2CC[C@@H](O)C2)c(-c2ccn[nH]2)c1,"per treatment cycle, refers to: amylase increase",human patients,"oral, dose not given, 28 day cycle, dose-finding study",,any-grade event rate,8.2%
CS(=N)(=O)c1ccc(C(F)(F)F)cc1 (stereo not shown),,human liver microsomes,,reference: hepatic blood flow,metabolic stability,< 23%
Nc1ncnc2c1ncn2[C@H]1C[C@@H]2OP(=O)(O)OC[C@H]3O[C@@H](n4cnc5c(N)ncnc54)C[C@@H]3OP(=O)(O)OC[C@H]2O1,,"non-tumor-bearing mice, serum","intravenous, 1 mg/kg, toxicity study",,total bile acids,5.92 ± 1.85 µmol/L
COc1cc(C(=O)N2CCC3(CC2)CC(=O)c2c(cnn2C(C)C)C3)cc(-c2ccc(C(=O)O)cc2)n1,refers to: direct LDL cholesterol,"human, fasting serum","10 mg every 12 h, day 13, adjusted geometric mean",reference: baseline and placebo,placebo-adjusted change from baseline,1.5%
Cc1ccc([C@@H]2O[C@H](CO)[C@@H](O)[C@H](O)[C@H]2O)cc1Cc1ccc(-c2ccc(F)cc2)s1,,Japanese type 2 diabetes patients,"100 mg, day 18, 24 h urine collection",reference: baseline,urinary magnesium excretion change,33.9 mg

# Repeated from above:
Structure (SMILES),test,test system,conditions,scale,measurement,value
CC[C@H](C)CCCCC(=O)N[C@@H](CCN)C(=O)N[C@H](C(=O)N[C@@H](CCN)C(=O)N[C@H]1CCNC(=O)[C@H]([C@@H](C)O)NC(=O)[C@H](CCN)NC(=O)[C@H](CCN)NC(=O)[C@H](CC(C)C)NC(=O)[C@@H](Cc2ccccc2)NC(=O)[C@H](CCN)NC1=O)[C@@H](C)O,,mild renal impairment,"intravenous infusion, 0.75 mg/kg single dose over 1 h, arithmetic mean",,clearance,35 mL/min
Cc1cc(NC2CCN(C(=O)OC3CCN(C(=O)/C=C/CN(C)C)C3)CC2)n2ncc(C(C)C)c2n1 (stereo not shown),"Phase I dose escalation CTCAE v4.0, refers to: urinary tract infection",patients with advanced solid tumours,"dose not given, QD dosing grade 3 or higher",,patients with adverse event,0%
